Measured values from different studies.
Each numbered part is a random draw from the data of one study; scales do not carry over between parts. Positions count from the first letter of the parent shown.

Study 1
Target: UBE2N UBC core domain (UniProt P61088)
Technique: yeast two-hybrid
Medium: yeast
Setting: mostly zero background
Reference: not given
Reading: higher = stronger interaction
Endpoint: lacZ reporter activity
B1: MID1 RING domain (UniProt O15344); chain METLESELTCPICLELFEDPLLLPCAHSLCFNCAHRILVSHCATNESVESITAFQCPTCRHVITLSQRGL
B2: UHRF2 RING domain (UniProt Q96PU4); chain CGGDPEKKCHSCSCRVCGGKHEPNMQLLCDECNVAYHIYCLNPPLDKVPEEEYWYCPSCKTDSSEVVKAGER
B3: RNF170 RING domain (UniProt Q96K19); chain TRQQFYTDMYCPICLHQASFPVETNCGHLFCGACIIAYWRYGSWLGAISCPICRQTVTLLLTVF
B4: CUL9 RING domain (UniProt Q8IWT3); chain AQAVPVRPDHCPVCVSPLGCDDDLPSLCCMHYCCKSCWNEYLTTRIEQNLVLNCTCPIADCPAQPTGAFIR
B5: TRIM72 RING domain (UniProt Q6ZMU5); chain APGLLHQELSCPLCLQLFDAPVTAECGHSFCRACLGRVAGEPAADGTVLCPCCQAPTRPQALST
B6: ZNF598 RING domain (UniProt Q86UK7); chain AAAPERGGGSCVLCCGDLEATALGRCDHPVCYRCSTKMRVLCEQRYCAVCREELRQVVFGK
B7: TRIM63 RING domain (UniProt Q969Q1); chain PMENLEKQLICPICLEMFTKPVVILPCQHNLCRKCANDIFQAANPYWTSRGSSVSMSGGRFRCPTCRHEVIMDRHGV
B8: TRIM69 RING domain (UniProt Q86WT6); chain VIQDITMELHCPLCNDWFRDPLMLSCGHNFCEACIQDFWRLQAKETFCPECKMLCQYNNCTF
B9: TRIM8 RING domain (UniProt Q9BZR9); chain WKNCFEEELICPICLHVFVEPVQLPCKHNFCRGCIGEAWAKDSGLVRCPECNQAYNQKPGLE
B10: PHF21A RING domain (UniProt Q96BD5); chain SPTSTDGDIHEDFCSVCRKSGQLLMCDTCSRVYHLDCLDPPLKTIPKGMWICPRCQDQMLKKEEAIPW
Construct (chain): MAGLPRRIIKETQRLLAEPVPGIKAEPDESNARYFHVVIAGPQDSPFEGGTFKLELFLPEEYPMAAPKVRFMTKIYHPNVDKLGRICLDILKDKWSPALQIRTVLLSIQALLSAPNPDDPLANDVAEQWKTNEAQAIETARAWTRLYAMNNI
B1 (MID1 RING domain): 0
FPEHFVKSISCQICEHILADPVETNCKHVFCRVCILRCLKVMGSYCPSCRYPCFPTDLES (RAG1 RING domain (UniProt P15918)): 0
B2 (UHRF2 RING domain): 0
B3 (RNF170 RING domain): 0
B4 (CUL9 RING domain): 0
B5 (TRIM72 RING domain): 0
B6 (ZNF598 RING domain): 0
DDENSDNSNECVVCLSDLRDTLILPCRHLCLCTSCADTLRYQANNCPICRLPFRALLQIR (MGRN1 RING domain (UniProt O60291)): 0
B7 (TRIM63 RING domain): 0
KTLSRFGIQPCSICLGDAKDPVCLPCDHVHCLRCLRAWFASEQMICPYCLTALPDEFSPA (RNF213 RING domain (UniProt Q63HN8)): 0
B8 (TRIM69 RING domain): 0
B9 (TRIM8 RING domain): 0
EDEVSDNSAECVVCLSDVRDTLILPCRHLCLCNTCADTLRYQANNCPICRLPFRALLQIR (RNF157 RING domain (UniProt Q96PX1)): 0
B10 (PHF21A RING domain): 0
QLQDIKEQTMCPVCLDRLKNMIFLCGHGTCQLCGDRMSECPICRKAIERRILLY (MIB1 RING domain (UniProt Q86YT6)): 2160
FASPPDSNFVCSVCHGVLKRPARLPCSHIFCKKCILRWLARQKTCPCCRKEVKRKKVVH (RNF151 RING domain (UniProt Q2KHN1)): 0

Study 2
Target: CCNE2, cyclin fold, Cln2 fusion (human)
Technique: yeast growth competition, sequencing
Medium: yeast
Setting: weak parent motif
Reference: not given
Reading: higher = stronger binding
Endpoint: normalised enrichment score
Starting sequence: PKMYT1 docking peptide (human); SFEPRNLLSLFED; partner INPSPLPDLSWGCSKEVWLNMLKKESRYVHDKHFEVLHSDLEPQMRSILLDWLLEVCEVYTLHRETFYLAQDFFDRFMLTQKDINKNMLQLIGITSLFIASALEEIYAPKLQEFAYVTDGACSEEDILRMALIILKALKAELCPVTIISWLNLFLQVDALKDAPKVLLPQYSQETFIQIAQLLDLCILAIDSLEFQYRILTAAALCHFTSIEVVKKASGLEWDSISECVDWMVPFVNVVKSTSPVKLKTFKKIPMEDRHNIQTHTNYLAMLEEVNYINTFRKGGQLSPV
D13L: 0.0353
R5V: 0.416
S1R: 0.405
N6S: 0.375
E12P: -0.382
R5K F11L: -0.266
F11K: 0.235
S1A: -0.213
L7N: -0.579
R5D: 0.41
E3P: 0.454
S9D: 0.0399
E3R: 0.114
S9F: 0.575
F2L: 0.295
S9R: 0.617
P4I: -1.36
N6I: 0.0686
P4T: -0.397

Study 3
Target: Interferon regulatory factor 5, full length, phosphomimetic (IRF5, Homo sapiens, UniProt Q13568-2, residues 1-514, S451D/S453D/S456D/S462D)
Technique: protein-binding microarray
Form: double-stranded DNA, one strand shown
Medium: in vitro
Tested at: 940 nM top
Setting: 60-bp whole probe
Added: salmon DNA 0.4 mg/ml
Reference: random background probes
Reading: higher = stronger binding
Endpoint: fitted relative affinity
Shared flanks, not repeated: GCCTAGCAC … GTCTTGATTCGCTTGACGCTGCTG
TTAGGTCTCCTTCTCTTTTAGTGCTAG: 0.376 z-score
TCATGGTTCCCATTCCAACTGTGCTAG: 0.344 z-score
TTAGGTCCCCTTATCCTTTAGTGCTAG: 0.216 z-score
TTAGGTTGCCTTTTCCTTTAGTGCTAG: 0.478 z-score
TTAGTACTGCTACTGCTTTAGTGCTAG: 0.137 z-score
TCAACTTCGGCCTCTAGGACTGTGCTA: -0.124 z-score
GACGGTTTCGGTATCGGGAGGTGCTAG: 13.3 z-score
GTCGGTATCCTACTGCTGACGTGCTAG: 0.4 z-score
GACGGTTTCCATATCCTGACGTGCTAG: 1.72 z-score
TTAGCTATCGGGTTTCGATTAGTGCTA: 4.69 z-score
TTAGATATCAGACAGGATTAGTGCTAG: -0.293 z-score
GCCGATTTCGGGTTTCGAGACGTGCTA: 2.28 z-score
TTAGGGCTGGACTATCGGTTAGTGCTA: -0.0229 z-score
TTAGGTGTCCTTATCCTTTAGTGCTAG: -0.0591 z-score
GAAGGTATCGACTATCGGGACGTGCTA: 3.7 z-score
GATGGTATCGGGTATCGGGACGTGCTA: 7.02 z-score
TTAGAAGTGGGGTTTCGATTAGTGCTA: 5.3 z-score
TTAGTTTTCGGTTTCGGTTAGTGCTAG: 11.4 z-score
GACGGTTTCGGACAGGGGACGTGCTAG: 6.3 z-score
GACGGTCTCGGTATCGGGGCGTGCTAG: 4.54 z-score
CTAGTTTCCATTTTCAGAATGTGCTAG: 2.91 z-score
AACTTTGGTATCTGGCATCTGTGCTAG: 1.38 z-score
GACGGACTGGACTTTCGGGTCGTGCTA: 1.22 z-score

Study 4
Target: ABI1, truncated, D143A, DHFR fusion (Arabidopsis thaliana)
Technique: DHFR PCA, deep sequencing
Medium: yeast
Setting: methotrexate growth selection, single substitutions
Added: (+)-ABA 58 µM
Reference: wild-type fitted maximum
Reading: higher = stronger binding
Endpoint: relative binding score
Starting sequence: PYL1, truncated, DHFR fusion (Arabidopsis thaliana); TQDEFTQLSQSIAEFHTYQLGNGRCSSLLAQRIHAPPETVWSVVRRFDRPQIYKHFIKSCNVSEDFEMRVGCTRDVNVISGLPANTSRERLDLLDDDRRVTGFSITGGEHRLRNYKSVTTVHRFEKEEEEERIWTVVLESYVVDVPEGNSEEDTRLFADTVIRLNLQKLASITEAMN
N22Q: 97.9%
D75I: 94.8%
W41C: 8.29%
V62T: 79%
E14C: 61.1%
P50D: -5.8%
H16A: 3.06%
G102C: 33.6%
R49E: 79%
R88T: 84.3%
N77P: 5.25%
D92E: 75.8%
M68P: 75%
F5A: 81.5%
E151P: 84.3%
R111A: 29.2%
H55T: 91%
R88L: 78.2%
R132I: 87.6%
E125H: 97.8%
L94Y: 81.2%
R99P: -5.17%
G23T: 75.7%
Q10K: 93%
N77S: 89.8%

Study 5
Target: Histone acetyltransferase KAT6A, both winged helices, GST fusion (KAT6A, Homo sapiens, UniProt Q92794, residues 1-181)
Technique: protein binding microarray
Form: double-stranded DNA, one strand shown
Medium: in vitro
Tested at: not given
Setting: 8-mer, flanks averaged, mean of 2 arrays, mostly near background
Reference: not given
Reading: higher = stronger binding
Endpoint: E-score
Target sequence (chain): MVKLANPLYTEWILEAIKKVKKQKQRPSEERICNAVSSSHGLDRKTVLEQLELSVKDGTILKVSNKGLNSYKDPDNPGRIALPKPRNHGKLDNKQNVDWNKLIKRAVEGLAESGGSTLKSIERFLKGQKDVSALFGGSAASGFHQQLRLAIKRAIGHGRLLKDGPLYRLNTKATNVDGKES
GGTAATAA: -0.00351
GAAAGGCC: 0.113
ATCATGCG: 0.1
AATCGAGT: -0.13
CGCTGACA: 0.1
ACAGCTTC: -0.044
ACCACTGC: -0.0447
GGATTTAC: 0.0374
CATCGGCG: 0.198
ATTATGTA: 0.117
CTACTTCA: -0.0757
CTTGAACA: 0.0597
AGCCGAGC: 0.162
TACAGTCA: -0.0985
CATCGAGA: -0.145
AAACATTA: 0.0947
CGGAAACC: 0.217
ATGACGTC: 0.163
AATTGTCT: -0.156
ATTAGAGG: -0.101
AGGACGAA: 0.0142
ACATCGCC: 0.157
CTCTTACC: 0.0196
AACTATAC: -0.0447
GCCCAACA: -0.057

Study 6
Target: XBP1, bZIP domain (human)
Technique: DHFR protein complementation
Medium: yeast
Setting: single substitutions, most at no-binding floor
Reference: wild-type JUN-FOS pair
Reading: higher = stronger binding
Endpoint: binding fitness
Starting sequence: JUN, bZIP domain (human); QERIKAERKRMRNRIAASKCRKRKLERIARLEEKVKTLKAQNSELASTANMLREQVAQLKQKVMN; partner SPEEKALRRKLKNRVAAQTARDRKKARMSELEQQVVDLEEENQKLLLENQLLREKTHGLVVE
E44H: -0.911 natural log
I28Y: -1.2 natural log
V35R: -1.35 natural log
I28A: -1.44 natural log
Q41N: -1.4 natural log
L59S: -0.42 natural log
N42G: -1.4 natural log
L45D: -1.5 natural log
E44M: -0.852 natural log
L52T: -1.46 natural log
L31I: -1.56 natural log
L59V: -0.692 natural log
S43R: -0.376 natural log
I28E: -1.04 natural log
L52G: -1.5 natural log
S47D: -0.644 natural log
L38H: -1.4 natural log
